Measurements collected from several papers.
Protocols differ between the studies behind these lines. Values joined by “and” are separate records of one study, mostly repeats; a detail may differ. Numbers after ± are the reported error.

Compound	assay	test system	conditions	tissue uptake
CC(C)C[C@H](NC(=O)[C@@H](CCCCNC(=O)[C@@H](Cc1ccccc1)NC(=O)CCCCCCCNC(=O)CN1CCN(CC(=O)O)CCN(CC(=O)O)CCN(CC(=O)O)CC1)NC(=O)[C@H](Cc1ccc(O)cc1)NC(=O)[C@H](CO)NC(=O)[C@H](Cc1c[nH]c2ccccc12)NC(=O)[C@H](Cc1c[nH]cn1)NC(=O)[C@@H]1CCC(=O)N1)C(=O)N[C@@H](CCCNC(=N)N)C(=O)N1CCC[C@H]1C(=O)NCC(N)=O [indium-111 labelled]		male athymic nude mice, DU-145 prostate cancer xenograft, spleen	intravenous, dose not given, 1 h, with: unlabeled blocking peptide 10 µg	0.33 ± 0.14 %ID/g
COc1ccc2c(c1)C(C)(C)C(/C=C/C1=C(Oc3ccc(C(=O)NCCCCOc4cc(CN(Cc5ccccn5)Cc5ccccn5)cc(CN(Cc5ccccn5)Cc5ccccn5)c4)cc3)C(=C/C=C3/N(CCCCS(=O)(=O)[O-])c4ccc(OC)cc4C3(C)C)CCC1)=[N+]2CCCCS(=O)(=O)[O-].O=[N+]([O-])[O-].O=[N+]([O-])[O-].[99Tc+].[C-]#[O+].[C-]#[O+].[C-]#[O+].[Zn+2]		healthy BALB/c mice, kidneys	12 h	2 %ID/g and 1.79 %ID/g and 1.6 %ID/g and 1.67 %ID/g
CCCC[C@H](NC(=O)COCCOCCNC(=O)CN1CCN(CC(=O)O)CCN(CC(=O)O)CC1)C(=O)N[C@H]1CC(=O)NCCCC[C@@H](C(N)=O)NC(=O)[C@H](Cc2c[nH]c3ccccc23)NC(=O)[C@H](CCCNC(=N)N)NC(=O)[C@@H](Cc2ccccc2)NC(=O)[C@H](Cc2c[nH]cn2)NC1=O [fluorine-18 labelled]		C57 mice, B16/F10 melanoma, blood	intravenous, 1 h, with: NDP-MSH 10 µg	0.77 ± 0.21 %ID/g
Cc1cc(C)n(CCN(CCN)CCCCCCNC(=O)[C@@H](N)Cc2c[nH]cn2)n1.[99Tc+].[C-]#[O+].[C-]#[O+].[C-]#[O+]		BALB/c nude mice, A549 xenograft, pancreas	intravenous, 15 min	1.2 ± 0.29 %IA/g
COc1ccc(Nc2nc(Nc3ccc(OCCOCCOCC[18F])cc3)ncc2Br)cc1		ICR mice, S180 tumour-bearing, brain	intravenous, 370 kBq, 15 min	2.43 ± 0.07 %ID/g
O=C(NCC1OC2CCC=CCCC2O1)c1ccc([18F])nc1 (centres unmarked)		healthy female BALB/c nude mice, stomach	intravenous, 7.4 MBq per mouse, 2 min	3.9 ± 0.4 %ID/g
CCCC[C@H](NC(=O)CNC(=O)CNC(=O)[C@H](CCCCNC(=O)[C@H](CCN)NC(=O)C(C)c1ccc(CC(C)C)cc1)NC(=O)CN1CCN(CC(=O)O)CCN(CC(=O)O)CCN(CC(=O)O)CC1)C(=O)N[C@H]1CC(=O)NCCCC[C@@H](C(N)=O)NC(=O)[C@H](Cc2c[nH]c3ccccc23)NC(=O)[C@H](CCCNC(=N)N)NC(=O)[C@@H](Cc2ccccc2)NC(=O)[C@H](Cc2c[nH]cn2)NC1=O (some centres unmarked) [lutetium-177 labelled]		C57 mice, tumour-bearing, pancreas	2 h	0.41 ± 0.09 %ID/g
Cc1cc(C)n(CCN(CCN)CCCCCCNC(=O)[C@@H](N)Cc2c[nH]c3ccccc23)n1.[99Tc+].[C-]#[O+].[C-]#[O+].[C-]#[O+]		BALB/c nude mice, A549 xenograft, tumor	intravenous, 4 h	0.56 ± 0.05 %IA/g
N#C[C@@H]1CCCN1C(=O)CNC(=O)c1ccnc2ccc(OCCCN3CCN(C(=O)CCc4ccc5c(c4)CN4CCN(Cc6cc(CCC(=O)O)ccc6O)CC(=O)[O][Al-]([18F])([O]C(=O)C4)[O]5)CC3)cc12 (some centres unmarked)		BALB/c nude mice, U-87 MG xenograft, pancreas	1 h, blocking, with: DOTA-FAPI-04 40 nmol/mouse co-injected	0.35 ± 0.17 %ID/g
CCCC[C@H](NC(=O)CNC(=O)CNC(=O)[C@H](CCCCNC(=O)[C@H](CC(=O)O)NC(=O)C(C)c1ccc(CC(C)C)cc1)NC(=O)CN1CCN(CC(=O)O)CCN(CC(=O)O)CCN(CC(=O)O)CC1)C(=O)N[C@H]1CC(=O)NCCCC[C@@H](C(N)=O)NC(=O)[C@H](Cc2c[nH]c3ccccc23)NC(=O)[C@H](CCCNC(=N)N)NC(=O)[C@@H](Cc2ccccc2)NC(=O)[C@H](Cc2c[nH]cn2)NC1=O (some centres unmarked) [lutetium-177 labelled]		C57 mice, tumour-bearing, brain	2 h	0.05 ± 0.03 %ID/g
CCCC[C@H](NC(=O)CCCCCCCNC(=O)CN1CCN(CC(=O)O)CCN(CC(=O)O)CC1)C(=O)N[C@H]1CC(=O)NCCCC[C@@H](C(N)=O)NC(=O)[C@H](Cc2c[nH]c3ccccc23)NC(=O)[C@H](CCCNC(=N)N)NC(=O)[C@@H](Cc2ccccc2)NC(=O)[C@H](Cc2c[nH]cn2)NC1=O [fluorine-18 labelled]		C57 mice B16-F10 melanoma, skin	intravenous, 0.37 MBq, 1 h	0.99 ± 0.91 %ID/g
COc1ccc(Nc2nc(Nc3ccc(OCCOCC[18F])cc3)ncc2Br)cc1		ICR mice, S180 tumour-bearing, lung	intravenous, 370 kBq, 60 min	2.61 ± 0.2 %ID/g
O=C(NCC1OC2CCC=CCCC2O1)c1ccc(COCCOCCOCC[18F])cc1 (centres unmarked)		healthy female BALB/c nude mice, kidneys	intravenous, 7.4 MBq per mouse, 120 min	3.1 ± 0.1 %ID/g
O=C([O-])CN1CCN(CC(=O)[O-])CCN(CC(=O)NC[C@H]2CC[C@H](C(=O)N[C@H](Cc3cnc4ccccc4c3)C(=O)NCCCC[C@H](NC(=O)N[C@@H](CCC(=O)O)C(=O)O)C(=O)O)CC2)CCN(CC(=O)[O-])CC1.[64Cu+2]	ex vivo gamma counting	22Rv1 tumour-bearing mice, intestine	intravenous, 0.74 MBq, 24 h post-injection	11 %ID/g

For quick reference, copied from above:
Compound	assay	test system	conditions	tissue uptake
CC(C)C[C@H](NC(=O)[C@@H](CCCCNC(=O)[C@@H](Cc1ccccc1)NC(=O)CCCCCCCNC(=O)CN1CCN(CC(=O)O)CCN(CC(=O)O)CCN(CC(=O)O)CC1)NC(=O)[C@H](Cc1ccc(O)cc1)NC(=O)[C@H](CO)NC(=O)[C@H](Cc1c[nH]c2ccccc12)NC(=O)[C@H](Cc1c[nH]cn1)NC(=O)[C@@H]1CCC(=O)N1)C(=O)N[C@@H](CCCNC(=N)N)C(=O)N1CCC[C@H]1C(=O)NCC(N)=O [indium-111 labelled]		male athymic nude mice, DU-145 prostate cancer xenograft, spleen	intravenous, dose not given, 1 h, with: unlabeled blocking peptide 10 µg	0.33 ± 0.14 %ID/g
